Experimental data of several laboratories.
Parts stem from different laboratories: compare values within a part only.
UniProt Q99759, sequence (whole entry, looked up): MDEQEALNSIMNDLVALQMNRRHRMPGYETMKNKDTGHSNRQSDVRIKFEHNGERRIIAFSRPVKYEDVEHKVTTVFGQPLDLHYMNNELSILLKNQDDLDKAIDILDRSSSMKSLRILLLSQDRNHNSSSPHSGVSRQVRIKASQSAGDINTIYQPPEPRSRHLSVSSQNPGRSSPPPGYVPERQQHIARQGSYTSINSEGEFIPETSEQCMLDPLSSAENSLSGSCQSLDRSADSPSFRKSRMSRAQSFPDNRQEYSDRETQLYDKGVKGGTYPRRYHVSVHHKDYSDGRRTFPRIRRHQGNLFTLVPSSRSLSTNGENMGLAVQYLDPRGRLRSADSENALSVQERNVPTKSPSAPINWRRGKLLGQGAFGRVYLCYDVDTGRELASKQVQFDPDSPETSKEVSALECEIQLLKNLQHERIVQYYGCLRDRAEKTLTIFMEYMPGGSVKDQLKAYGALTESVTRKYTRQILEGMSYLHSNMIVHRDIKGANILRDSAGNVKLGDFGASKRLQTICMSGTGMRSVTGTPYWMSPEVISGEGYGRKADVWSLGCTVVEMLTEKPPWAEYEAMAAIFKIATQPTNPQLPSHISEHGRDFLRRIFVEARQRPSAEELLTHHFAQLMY

Sample 1
Target: Histone acetyltransferase KAT6A, winged helix 1, GST fusion (KAT6A, Homo sapiens, UniProt Q92794, residues 1-85)
Method: protein binding microarray
Form: double-stranded DNA, one strand shown
Sample: in vitro
Concentration: not given
Setting: 8-mer, flanks averaged, mean of 2 arrays, mostly near background
Relative to: not given
Direction: higher = stronger binding
Residues (chain): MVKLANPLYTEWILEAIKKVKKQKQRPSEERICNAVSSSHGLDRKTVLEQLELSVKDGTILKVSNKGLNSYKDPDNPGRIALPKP
For `GTTTAATA`, the E-score was -0.00526.
`ACCCGGTC` gave an E-score of 0.291.
With `CAAAAACC` the E-score was 0.0508.
`CGATGATA` has an E-score of 0.0664.
`CAATAAAG` gave an E-score of -0.0322.
For `CAATGGGG`, the E-score was -0.0106.
The E-score of `GGAGACCA` is reported as -0.0776.
`TACTCGAA` gave an E-score of -0.0645.

Sample 2
Target: Ras GTPase-activating protein-binding protein 1, full length (G3BP1, Homo sapiens, UniProt Q13283)
UniProt Q13283, sequence (whole entry, looked up): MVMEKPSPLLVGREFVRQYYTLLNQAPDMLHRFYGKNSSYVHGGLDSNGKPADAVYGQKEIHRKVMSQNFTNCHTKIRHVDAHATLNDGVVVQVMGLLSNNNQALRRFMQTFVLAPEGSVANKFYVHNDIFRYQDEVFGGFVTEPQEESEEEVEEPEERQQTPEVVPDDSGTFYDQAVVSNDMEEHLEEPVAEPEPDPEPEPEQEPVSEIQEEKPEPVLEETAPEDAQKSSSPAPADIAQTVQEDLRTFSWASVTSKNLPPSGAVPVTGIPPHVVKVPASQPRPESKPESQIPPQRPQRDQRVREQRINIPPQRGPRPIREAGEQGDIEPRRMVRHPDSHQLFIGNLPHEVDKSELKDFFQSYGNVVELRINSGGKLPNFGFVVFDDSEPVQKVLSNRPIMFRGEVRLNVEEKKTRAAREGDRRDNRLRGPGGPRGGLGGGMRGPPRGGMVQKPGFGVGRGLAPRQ
Method: RNA Bind-n-Seq
Form: RNA
Sample: in vitro
Concentration: 200 nM
Setting: whole 134-nt RNA, ends assumed
With: 150 mM LiCl
Relative to: input library
Direction: higher = stronger binding
Each molecule: 7-deaza-guanosine replaces G
For `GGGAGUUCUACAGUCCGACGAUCCCUGUGCUACACAUCGUAUGUACCGAAUCGGGAAAAAAGGGGAAAAAAGGGGAAAAAAGGGAAAGUAUUAUGUUACGCCGUUCGGAUCUGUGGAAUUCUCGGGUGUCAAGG`, the log2 enrichment was 0.494.
For `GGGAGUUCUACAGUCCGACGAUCCUCAAGUCCUGUGCUACACAUCGUAUGUACCGAAUCGGAAGGGGAAGGGAAGGGAAAGUAUUAUGUUACGCCGUUCGGAUCUGCACUUCCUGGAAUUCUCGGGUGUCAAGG`, the log2 enrichment was -0.0129.
For `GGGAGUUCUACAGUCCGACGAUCUGAACCUUCCAAUAGCAACCAAGAAAUAAACUCUGAUGACAGACGACCCCAAUGGAGACGAGAAGACCGAAUUCCUUACCAAGACAGAGAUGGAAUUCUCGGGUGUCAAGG`, the log2 enrichment was 1.22.
With `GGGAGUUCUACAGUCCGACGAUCGUCCUGUGCUACACAUCGUAUGUACCGAAUCGGGGUUUUUUUGGGGUUUGGGGAGGGGAAAGUAUUAUGUUACGCCGUUCGGAUCUGCACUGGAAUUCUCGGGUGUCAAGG` the log2 enrichment was -0.552.
For `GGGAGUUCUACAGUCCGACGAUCCACAGACAACACGCACCCACACAGACACAGAGGGAAGGGGUUGGGAUGGGGACUGGGUGCACAGCAGGGCGGGGUAGGACCCCAGCCCCUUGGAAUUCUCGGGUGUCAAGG`, the log2 enrichment was 0.298.
`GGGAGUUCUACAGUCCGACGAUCUGUGCUACACAUCGUAUGUACCGAAUCGGAAAAAAAGGGGAAAAAAAGGGGAAAAAAAGGGGAAAGUAUUAUGUUACGCCGUUCGGAUCUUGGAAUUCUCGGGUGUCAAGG` has a log2 enrichment of 0.243.
For `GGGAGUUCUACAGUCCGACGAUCAAGUCCUGUGCUACACAUCGUAUGUACCGAAUCGGGAAAAAGGGUUUGGGUUUGGGAAAGUAUUAUGUUACGCCGUUCGGAUCUGCACUUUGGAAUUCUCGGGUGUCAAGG`, the log2 enrichment was -1.59.
`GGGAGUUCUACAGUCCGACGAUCUCCUGUGCUACACAUCGUAUGUACCGAAUCGGGAAAAAAGGGGAAAAAAGGAAAAAAGGAAAGUAUUAUGUUACGCCGUUCGGAUCUGCAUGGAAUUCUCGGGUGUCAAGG` gave a log2 enrichment of -0.0871.

Sample 3
Target: Phosphate system positive regulatory protein PHO4, full length, GST-tagged (PHO4, Saccharomyces cerevisiae, UniProt P07270, residues 1-312)
Method: competition protein-binding microarray
Form: double-stranded DNA, one strand shown
Sample: in vitro
Concentration: 2 µM
Setting: whole 60-bp probe, lowest competitor level
With: Cbf1 competitor, 0.05 µM
Direction: higher = stronger binding
Construct (chain): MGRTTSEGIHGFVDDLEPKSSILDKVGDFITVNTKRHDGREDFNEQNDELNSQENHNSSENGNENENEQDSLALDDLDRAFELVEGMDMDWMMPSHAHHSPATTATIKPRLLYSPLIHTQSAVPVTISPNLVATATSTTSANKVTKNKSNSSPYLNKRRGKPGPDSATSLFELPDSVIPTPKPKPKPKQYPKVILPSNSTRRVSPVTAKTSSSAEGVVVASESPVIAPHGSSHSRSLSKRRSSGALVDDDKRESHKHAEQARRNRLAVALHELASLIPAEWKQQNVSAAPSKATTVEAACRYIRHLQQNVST
The fluorescence intensity of `GAGCTTCAATCCTGTCACAAATCCATTGCTTGTCTCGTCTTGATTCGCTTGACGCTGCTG` is reported as 3420 a.u.
`CCCTCCTCTCAGTCCCACGTGGGCGCTGGCGGCTTTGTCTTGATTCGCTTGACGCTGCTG` gave a fluorescence intensity of 18600 a.u.
The fluorescence intensity of `ACTTTCATTTGATGAAACGTGAAACTCTAATTAAGAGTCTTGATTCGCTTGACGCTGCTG` is reported as 9440 a.u.
`TTCAATGAAATTCGTCACGTCTCTGAGTTTCCTGAGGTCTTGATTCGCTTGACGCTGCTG` has a fluorescence intensity of 4610 a.u.
`CTAACGAAGGTTTGTCACGGAACTTACAAGCCAAGTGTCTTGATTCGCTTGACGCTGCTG` gave a fluorescence intensity of 3370 a.u.
`TGGTTCAGACTGGATCAGGCAATCAGCGAACAAATGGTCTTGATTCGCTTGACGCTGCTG` gave a fluorescence intensity of 2880 a.u.
With `ATTGATCCCTGCTGTCATGCCCCTCACCTTCATTCGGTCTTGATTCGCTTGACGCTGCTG` the fluorescence intensity was 5510 a.u.
The fluorescence intensity of `CTAACGAAGGTTTGTTGCGTGGGTGACAAGCCAAGTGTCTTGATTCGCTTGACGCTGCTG` is reported as 6340 a.u.

Mixed results
With Cc1cccc(-c2[nH]c(C(C)(C)C)nc2-c2ccc3c(c2)OCO3)n1 the remaining activity was 120% (Mitogen-activated protein kinase kinase kinase 3 (MAP3K3, Homo sapiens, UniProt Q99759); enzyme activity, inhibitor; 0.5 µM; relative to: control).

Excerpt of the above (sample 2):
For `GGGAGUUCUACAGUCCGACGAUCCCUGUGCUACACAUCGUAUGUACCGAAUCGGGAAAAAAGGGGAAAAAAGGGGAAAAAAGGGAAAGUAUUAUGUUACGCCGUUCGGAUCUGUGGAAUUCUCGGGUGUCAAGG`, the log2 enrichment was 0.494.
For `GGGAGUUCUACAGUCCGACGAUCCUCAAGUCCUGUGCUACACAUCGUAUGUACCGAAUCGGAAGGGGAAGGGAAGGGAAAGUAUUAUGUUACGCCGUUCGGAUCUGCACUUCCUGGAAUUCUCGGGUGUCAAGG`, the log2 enrichment was -0.0129.
